Assay results pooled from the literature.
Protocols differ between the studies behind these lines. Several values in a cell are separate wells, animals, samples, runs or records. ± gives the spread as reported.
NA: Neuraminidase (NA, Influenza A virus, UniProt P03468)
UniProt P03468, sequence (whole entry, looked up): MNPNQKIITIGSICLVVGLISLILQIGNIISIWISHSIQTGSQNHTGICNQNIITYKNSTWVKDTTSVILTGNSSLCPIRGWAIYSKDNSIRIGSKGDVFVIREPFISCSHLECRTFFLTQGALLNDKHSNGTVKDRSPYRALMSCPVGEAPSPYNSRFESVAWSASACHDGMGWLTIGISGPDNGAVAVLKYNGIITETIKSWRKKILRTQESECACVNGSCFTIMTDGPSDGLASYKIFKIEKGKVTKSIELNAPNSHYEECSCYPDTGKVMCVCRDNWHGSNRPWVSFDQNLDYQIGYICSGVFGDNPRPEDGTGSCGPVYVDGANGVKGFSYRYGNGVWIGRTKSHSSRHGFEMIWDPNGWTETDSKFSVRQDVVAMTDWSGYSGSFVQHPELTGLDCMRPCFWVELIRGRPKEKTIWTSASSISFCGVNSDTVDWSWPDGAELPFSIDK
rep main protease: Replicase polyprotein 1ab, main protease (rep, Severe acute respiratory syndrome-related coronavirus, UniProt P0C6X7)

CC(c1ccccc1Cl)N(C)Cc1cc(O)ccc1Cl (centres unmarked)
IC50 (Replicase polyprotein 1ab, papain-like protease (rep, Severe acute respiratory syndrome coronavirus 2, UniProt P0DTD1); deISGylase activity, inhibitor; together with: ISG15-AMC 0.5 µM): 12.5 ± 5.1 µM

O=c1c(O)c(-c2cc(O)c(O)c(O)c2)oc2cc(O)cc(O)c12
inhibition (Replicase polyprotein 1ab, 3C-like proteinase (rep, Middle East respiratory syndrome-related coronavirus, UniProt K9N7C7); enzyme activity; 10 µM): 5%

CCC(CC)O[C@@H]1C=C(C(=O)O)C[C@H](NCc2ccc(N(C)C(C)C)cc2)[C@H]1NC(C)=O
IC50 (NA; enzyme activity, inhibitor): 0.17 µM

COc1cc(O)ccc1CN(C)[C@H](C)c1cccc2ccccc12
EC50 (SARS-CoV-2; viral replication; Caco-2-hACE2, USA-WA1/2020; 24 h): > 60 µM

O=c1[nH]c2cc(Cl)cc(Cl)c2c(O)c1Sc1nnnn1-c1ccc(O)cc1
IC50 (rep main protease; enzyme activity, inhibitor): < 10 µM and 10.6 µM

O=C(Cc1csc2nc(-c3ccc(Br)cc3)cn12)NN=C1CCCC1
EC50 (Vaccinia virus; viral cytopathicity; HEL): > 100 µg/mL

CCC(CC)O[C@@H]1C=C(C(=O)O)C[C@H](NCc2ccc(N3CC[C@H](F)C3)cc2)[C@H]1NC(C)=O (stereo in doubt)
IC50 (NA; enzyme activity, inhibitor): 0.23 µM

O=C1C=CC(=O)c2cn(Cc3ccccc3)cc21
IC50 (rep main protease; enzyme activity, inhibitor): < 10 µM

Some of these lines once more:
CC(c1ccccc1Cl)N(C)Cc1cc(O)ccc1Cl (centres unmarked)
IC50 (Replicase polyprotein 1ab, papain-like protease (rep, Severe acute respiratory syndrome coronavirus 2, UniProt P0DTD1); deISGylase activity, inhibitor; together with: ISG15-AMC 0.5 µM): 12.5 ± 5.1 µM
